Measurements of several laboratories.
Each numbered part is a random draw from the data of one study; scales do not carry over between parts.

Block 1
Target: Interferon regulatory factor 5, full length, phosphomimetic (IRF5, Homo sapiens, UniProt Q13568-2, residues 1-514, S451D/S453D/S456D/S462D)
Technique: protein-binding microarray
Form: double-stranded DNA, one strand shown
Sample: in vitro
Concentration: 940 nM top
Notes: 60-bp whole probe
With: salmon DNA 0.4 mg/ml
Relative to: random background probes
Reading: higher = stronger binding
All sequences stand within: GCCTAGCAC … GTCTTGATTCGCTTGACGCTGCTG
| Oligonucleotide | fitted relative affinity [z-score] |
| --- | --- |
| TCAGTATTATTTATTGTACTGTGCTAG | -0.00495 |
| TCAAGTTTATTTATTTTACTGTGCTAG | 0.108 |
| TGCCATATTTATCTGCAAAGGTGCTAG | 0.0785 |
| GACGGTTTTGGTATCGGGACGTGCTAG | 5.28 |
| CTCACCGCTGGAGTTCTGCGGTGCTAG | -0.866 |
| ACAAATACAAGTTTCTCCTTGTGCTAG | 1.5 |
| TTAGGTATCGGTTTCTGTTAGTGCTAG | 10.1 |
| TTAGGTTTCGGTTCAGGTTAGTGCTAG | 15.4 |
| TCATTTCCCACTTTCACACTGTGCTAG | 2.53 |
| CTAGGTTCCCTTTTCCTTTAGTGCTAG | 0.69 |
| TCACTAATAAATATGAGACTGTGCTAG | 0.484 |
| GACGGTTTTCTACTGCTGACGTGCTAG | 0.842 |
| TCATATTTAAGCTCCTATACTGTGCTA | 0.271 |
| TTCTTACTTTGGGATTCTGAGTGCTAG | 0.736 |
| TCATGAGTCACTTCTGGTACTGTGCTA | -0.266 |
| GACGGACTGCTTTTCCTGAGGTGCTAG | -0.336 |
| TTAGGTATCGGACTGGGTAAGTGCTAG | 3.78 |
| GTAAGCAAAAATGATTGGTTGTGCTAG | -0.171 |
| TTAGGTCTCGGTTTAGGTTAGTGCTAG | 6.13 |
| TTAGAAATGAGACTGGATTAGTGCTAG | -0.0778 |
| GACGTTCTCGGACTGGGGACGTGCTAG | 0.497 |
| TTAGGTTTCCTACTGCTTTTGTGCTAG | 0.604 |

Block 2
Target: RNA binding protein fox-1 homolog 2, RRM domain, GST-SBP tag (RBFOX2, Homo sapiens, UniProt O43251-10, residues 100-194)
Technique: RNA Bind-n-Seq
Form: RNA
Sample: in vitro
Concentration: 365 nM
Notes: natural RNA segment, single round, ends assumed
Relative to: no-protein control
Reading: higher = stronger binding
All sequences stand within: GGGAGUUCUACAGUCCGACGAUC … UGGAAUUCUCGGGUGCCAA
Target sequence (chain): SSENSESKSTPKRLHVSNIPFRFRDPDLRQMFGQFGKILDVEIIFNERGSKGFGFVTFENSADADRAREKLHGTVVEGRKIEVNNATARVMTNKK
| Oligonucleotide | RBNS enrichment (R) |
| --- | --- |
| CGCACACUGGGGCCCCGGGUUCAGCCUGGCCUGCCCGUGCCCUGGUGAAUCACCUGGCUGAGCAGUUCCCCUGGAGCCCCUUCGGGAGCAGGGCUGUGUCCCAGAUGGGC | 0.377 |
| CAGGCAAAAGAUCCACUCCUUCCCACACUCAUUUGCCUGAACUUACUCGAAGGGCUGCAUUUCUCUGAGUUUACGAAAUUGUGUCAUUAUGGUCCCCAUACAGUGGUAUU | 2.61 |
| AGGAAGGAACAUCGUGCAGCUGAUGUGAAACUUGCCCUAUUUGGAAUUAGAUUUCCCUAGGAGGUAUGACAUGCGAUUUACUGUAGGCUCUGAAUCCGAGUGCUCCAGUG | 0.801 |
| CCGCCACCCACCUCUCCUGCAGGCUGCGACCUGCAGUGGCCCGUCUCAGGCCCUGCUCACUCCCGGGGCCACCAAACGGGCCCCUCUCUCGGGGGAACCGGACAGCAGCU | 0.495 |
| AAAAGAGUGAACAAAUUCAGUGCAGUGUUUUACACAGCUUGGUACCAUGAUAGUACCAGGGACAGGUUUUAAUAGAAAUUUAAGCUAUUUGUAUUACGAACAUAGGAGUG | 0.355 |
| UGUUCUCCUGUUAAGCCUAGAUCUUUCCCUAGUAGAUUGCAAACUCAACAGUCUGUGUGAUCCCAAAGCCAUUCCACUGUAAAUGCCUGGCAGUAAAGAUGGCCCCAGAC | 1.01 |
| AAGAGUUUAGUAAACGAAGAAUUAAACUGCACUGUUGAUCGGUGCUUUGUGUAAAUACAUCUUUAACAUUUGGGUGGAGAGGGGCCUUAAGAAGGACAGUUCAUUGUAGG | 0.653 |
| GUAGAAUUCUGUGCUCCCCGUGACACUUAGUACAUUAAGAAUGACUACACUGUUCCUCGUAUGUGAAGGAGGCAGUGCUGACUCCGUGAGUGUGAGACACGUGCUUUGAA | 1.29 |
| AUGCGCAGAUGUGAGGGACACGCUCACCUUAGCCUUAAGGGGGUAGGAGUGAUGUUUUGGGGGAGGCUUUGAGAGCAAAAACGAGGAAGAGGGCUGAGCUGAGCUUUCGG | 0.882 |
| GAAGUCUUCCCUCAACUACGUGUGAUGACCAAGUCCAAGGUUGACCAGGGACUGUCUACAGCAGCCACAGCCACUGUGCACAAUGGACAGGGUGCCCAGGUCCUCGGAGC | 0.244 |
| CACGUCCAAGGCUGCUUACCCCAGCAACCUCCCAUCCCCUGAGCCCUCAAUAAAUGCCAUCUGUAGCAGCUGUUUGUCUGAGCGCCCUGUACUAGGGGGCCGGUGGGCUG | 0.628 |
| UUGUCCAAAGUUUAUUUAUUUAUUUAUUACCCUAAGAAUGCUUUGCCAUAACCACAUUUAAUGGGAAAAACGGCAGUAUCACAGAUGUAAAUUAACUCACCAGAUUUACU | 0.579 |

Block 3
Target: RING finger protein unkempt homolog, zinc fingers 1-6, GST-SBP tag (UNK, Homo sapiens, UniProt Q9C0B0, residues 30-357)
Technique: RNA Bind-n-Seq
Form: RNA
Sample: in vitro
Concentration: not given
Notes: RNA with constant flanks, human and mouse sites, ends assumed
Relative to: input RNA pool
Reading: higher = stronger binding
All sequences stand within: GGGAGUUCUACAGUCCGACGAUC … CAACAGAGGAUUGAGCAUCA
Target sequence (chain): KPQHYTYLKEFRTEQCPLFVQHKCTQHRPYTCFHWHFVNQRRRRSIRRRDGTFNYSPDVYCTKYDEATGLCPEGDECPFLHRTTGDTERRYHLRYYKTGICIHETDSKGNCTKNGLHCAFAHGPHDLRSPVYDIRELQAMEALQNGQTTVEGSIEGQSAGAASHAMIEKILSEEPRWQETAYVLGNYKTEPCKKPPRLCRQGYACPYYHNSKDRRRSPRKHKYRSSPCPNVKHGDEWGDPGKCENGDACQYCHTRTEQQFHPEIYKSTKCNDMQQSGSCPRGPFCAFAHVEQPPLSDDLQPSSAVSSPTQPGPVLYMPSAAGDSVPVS
| Oligonucleotide | bound/input enrichment |
| --- | --- |
| UGGAGCUGCCCGUCUCAGUGUGUGAGUGUGUGUGUGCGUGCAUGUGUGUGUGUGUGUGUGUGUGUGUGUGUGUCUGUCUGCCUGUCUCUCUCCUCCUGGACCCAGGGCAGCCAAGGGCAG | 0.587 ratio |
| UACAUGGCGAAGAAGAAACCAGUUCCAGAGCAGAAAGGAACAAAAGAUUCUAGACAAGGUUUCCAUCCACCUAUGCCUGGAUUUGGUACAGCUGCUUUAAACACAUCUCCUGAGAGUCCU | 0.195 ratio |
| CUGAAAACACUCUUCUGCUACUUUCGAAGAGUCACAGAGAAAAAACCUACAGGAUUGGUGACAUUUACAAGACAGAGUCUUGAAGAUUUUCCAGAAUGGGAAAGGUGUGAAAAGCCUCUG | 0.093 ratio |
| GUUGAUGAAGAAUAUGAGUUAUAUCAAGAUCCCUCACCAUCCAUGGAGUUGUAUCCCUUGUCGCACAUUCAAGAGGCCACUCCUGUGCCCUCUGUGAAUGAACUUCACUUUGGUACACAG | 0.124 ratio |
| AAACAAUUGCUCUAUGAUUUCCCCUGGACAAAUGUUGGGAAGUUGGUGUUUGUGGGCAAGAAGUUUGAGAUUUUGCCAGAUGGCCUUCCCUCCGCCAGGAAGCUGGUCUACUACACAGGG | 0.154 ratio |
| CCCCGGGCUGUUUCACAAGCAAGUGGUUUUCAUUAACUCACAAAGCCUUUUUGGACAUUAAUAUUUAUUUAUUUUUGUUUUUGUAUACACAUUACCCAGCAUCUCUUUUGUAUAAGAGAC | 0.315 ratio |
| ACUCCUCCCCCUACUCCACCGGACCUCAACCAGGACUUCAGUGGAUUUCAGCUUCUAGUGGAUGUUGCACUCAAACGGGCUGCAGAGAUGGAGCUUCAGGCAAAACUUACAGCUUAACCC | 0.224 ratio |
| UGGUAUGGCCUCGGGCAGACCUAUGAAAUCCUUAAGAUGCCAUUUUACUGCCUUUAUUAUUAUAGACGGGCCCACCAGCUUCGACCCAAUGAUUCUCGCAUGCUGGUUGCUUUAGGAGAA | 0.781 ratio |
| GGAGCGGGUCUGGGGCUCAGCCGGCGGCCCGAAGGUGCGGCGCCAUGAAGCUGUACAGCCUUAGUGUCCUUUACAAAGGCGAUCCGAAAGCGGUGCUGCUCAAGGCCGCGUACGACGUGU | 0.116 ratio |
| AACCACAACGACUGGAUUAAGCAGUAUGAAACACUAGCCGAAAUGGUAGUUCCAAGGUCUAGCAAUGUUCUUUCAGAGGACCAAGACAGUUACCUGUGUAAUGUCACCUUGUUUAGGAAG | 0.388 ratio |
| AGGUUAACUCUGAGAGCUAUCAAACUAUGGGCCAAACGCCACAACAUCUAUUCCAAUAUAUUAGGUUUCCUCGGUGGUGUUUCCUGGGCUAUGCUAGUAGCAAGAACUUGCCAGCUUUAU | 0.699 ratio |

Block 4
Target: Histone acetyltransferase KAT6A, winged helix 2, GST fusion (KAT6A, Homo sapiens, UniProt Q92794, residues 85-181)
Technique: protein binding microarray
Form: double-stranded DNA, one strand shown
Sample: in vitro
Concentration: not given
Notes: 8-mer, flanks averaged, mean of 2 arrays, mostly near background
Relative to: not given
Reading: higher = stronger binding
Target sequence (chain): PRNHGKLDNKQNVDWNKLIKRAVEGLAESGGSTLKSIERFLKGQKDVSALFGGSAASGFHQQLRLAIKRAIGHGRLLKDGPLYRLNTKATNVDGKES
| Oligonucleotide | E-score |
| --- | --- |
| GCGAACGC | -0.00176 |
| GAATCTCA | -0.0838 |
| GCTGCCGA | 0.197 |
| AAGGCACG | 0.147 |
| AACCACTA | -0.13 |
| AGTACGGC | 0.0763 |
| CAATATTC | -0.156 |
| GTGCCTGA | -0.0908 |
| AGAGCACG | 0.0312 |
| GTGGTTGA | -0.119 |
| ACTTCGCA | -0.0772 |
| CTAGACTC | -0.383 |
| GCAGATCA | -0.109 |
| CACCTATG | -0.199 |
| AGACTTAC | -0.322 |
| GAAACTGC | 0.0152 |
| ACACAAGC | -0.00843 |
| ACAACTGA | -0.0538 |
| CAGCGTGA | 0.00134 |
| AGTTCGTG | 0.114 |
| AGTCACTC | -0.0528 |
| CCGGCGCG | 0.272 |
| ACGGTATA | -0.156 |
| CCGGCTCG | 0.267 |
| ATGGCTAA | -0.0775 |
